Measurements from different studies.
Protocols differ between the studies behind these lines. ≈ marks a conversion by molar mass, not a printed value.
Organism: Klebsiella pneumoniae

SMILES	technique	strain	sample	time	temperature	notes	MIC [µg/mL]
COc1cc(CNc2ccc(C(=O)O)cc2)cc(OC)c1O	broth microdilution	–	–	–	–	–	64 (≈ 211 µM)
CC[C@H](C)CCCCC(=O)N[C@@H](CCN)C(=O)N[C@H](C(=O)N[C@@H](CCN)C(=O)N[C@H]1CCNC(=O)[C@H]([C@@H](C)O)NC(=O)[C@H](CCN)NC(=O)[C@H](CCN)NC(=O)[C@H](CC(C)C)NC(=O)[C@@H](CC(C)C)NC(=O)[C@H](CCN)NC1=O)[C@@H](C)O	broth microdilution	ATCC 27736	cation-adjusted Mueller-Hinton broth	18 to 20 h	37 °C	0.002% polysorbate 80	0.25 (≈ 0.214 µM)
[H]/N=C(/N)N[C@H]1[C@H](O)[C@@H](O)[C@H](O[C@@H]2O[C@@H](C)[C@](O)(C=O)[C@H]2O[C@@H]2O[C@@H](CO)[C@H](O)[C@@H](O)[C@@H]2NC)[C@@H](N/C(N)=N\[H])[C@@H]1O	–	DOU CTX-M-15	Mueller Hinton broth	overnight	37 °C	–	> 512
CO[C@@]1(NC(=O)Cc2cccs2)C(=O)N2C(C(=O)O)=C(COC(N)=O)CS[C@@H]21	broth microdilution	ATCC 43816 acrAB knockout	–	–	–	–	1 (≈ 2.34 µM)
C[C@H]1COc2c(N3CCN(C)CC3)c(F)cc3c(=O)c(C(=O)O)cn1c23	broth microdilution	KP	–	18 h	–	–	8 (≈ 22.1 µM)
NC(=O)[C@@H]1CC[C@@H]2CN1C(=O)N2OS(=O)(=O)O	–	17-29 ESBL	–	–	–	compound alone	32 (≈ 121 µM)
CC[C@H]1OC(=O)[C@H](C)[C@@H](O[C@H]2C[C@@](C)(OC)[C@@H](O)[C@H](C)O2)[C@H](C)[C@@H](O[C@@H]2O[C@H](C)C[C@H](N(C)C)[C@H]2O)[C@](C)(O)C[C@@H](C)C(=O)[C@H](C)[C@@H](O)[C@]1(C)O	broth microdilution	ATCC 43816 acrAB knockout	–	–	–	–	4 (≈ 5.45 µM)
Cc1c(CN(C)C(=O)/C=C/c2cnc3c(c2)CCC(=O)N3)oc2ccccc12	broth microdilution	AR-0098	–	–	–	–	> 32
Cc1cc(NS(=O)(=O)c2ccc(N)cc2)no1	broth microdilution	NCTC 13438	–	24 h	–	5% CO2	> 512
CN(C)[C@@H]1C(O)=C(C(N)=O)C(=O)[C@@]2(O)C(O)=C3C(=O)c4c(O)cccc4[C@@](C)(O)[C@H]3C[C@@H]12	broth microdilution	BNCC 359393	–	–	–	–	4 (≈ 9 µM)
O=C(O)c1ccc(NCc2ccc(Cl)cc2)cc1	broth microdilution	–	–	–	–	–	64 (≈ 245 µM)
Cc1c(CN(C)C(=O)/C=C/c2cnc3c(c2)CC(NC(=O)OC(C)(C)C)C(=O)N3)oc2ccccc12 (stereo not drawn)	broth microdilution	AR-0113	–	–	–	–	> 32
CC1(C)S[C@@H]2[C@H](NC(=O)[C@H](N)c3ccccc3)C(=O)N2[C@H]1C(=O)O	–	DOU CTX-M-15	Mueller Hinton broth	overnight	37 °C	–	> 512
C[C@@H](O)[C@H]1C(=O)N2C(C(=O)O)=C(S[C@@H]3CN[C@H](C(=O)N(C)C)C3)[C@H](C)[C@H]12	–	11228	–	–	–	–	< 2
N=C(N)c1ccc(OCc2cccc(COc3ccc(C(=N)N)cc3)c2)cc1	–	ATCC 13883	–	–	–	compound alone	> 200
c1ccc(OCCn2c(CNCC34CC5CC(CC(C5)C3)C4)nc3ccccc32)cc1	–	ATCC 700603	–	–	–	–	> 128
CO/N=C(\C(=O)N[C@@H]1C(=O)N2C(C(=O)O)=C(COC(C)=O)CS[C@H]12)c1csc(N)n1	broth microdilution	NCTC 13438	–	24 h	–	5% CO2	256 (≈ 562 µM)
N=C(N)c1ccc(OCc2cc(Br)cc(COc3ccc(C(=N)N)cc3)c2)cc1	–	ATCC 13883	–	–	–	compound alone	> 200

For quick reference, copied from above:
SMILES	technique	strain	sample	time	temperature	notes	MIC [µg/mL]
O=C(O)c1ccc(NCc2ccc(Cl)cc2)cc1	broth microdilution	–	–	–	–	–	64 (≈ 245 µM)
CO/N=C(\C(=O)N[C@@H]1C(=O)N2C(C(=O)O)=C(COC(C)=O)CS[C@H]12)c1csc(N)n1	broth microdilution	NCTC 13438	–	24 h	–	5% CO2	256 (≈ 562 µM)
CC[C@H](C)CCCCC(=O)N[C@@H](CCN)C(=O)N[C@H](C(=O)N[C@@H](CCN)C(=O)N[C@H]1CCNC(=O)[C@H]([C@@H](C)O)NC(=O)[C@H](CCN)NC(=O)[C@H](CCN)NC(=O)[C@H](CC(C)C)NC(=O)[C@@H](CC(C)C)NC(=O)[C@H](CCN)NC1=O)[C@@H](C)O	broth microdilution	ATCC 27736	cation-adjusted Mueller-Hinton broth	18 to 20 h	37 °C	0.002% polysorbate 80	0.25 (≈ 0.214 µM)
